Results of several laboratories.
Every numbered part comes from another study and shows a few of its results, in no order. Positions count from the first letter of the parent shown.

Block 1
Target: Sal-like protein 4, full length isoform A (SALL4, Homo sapiens, UniProt Q9UJQ4, residues 1-1053)
Sequence of UniProt Q9UJQ4 (whole entry, looked up): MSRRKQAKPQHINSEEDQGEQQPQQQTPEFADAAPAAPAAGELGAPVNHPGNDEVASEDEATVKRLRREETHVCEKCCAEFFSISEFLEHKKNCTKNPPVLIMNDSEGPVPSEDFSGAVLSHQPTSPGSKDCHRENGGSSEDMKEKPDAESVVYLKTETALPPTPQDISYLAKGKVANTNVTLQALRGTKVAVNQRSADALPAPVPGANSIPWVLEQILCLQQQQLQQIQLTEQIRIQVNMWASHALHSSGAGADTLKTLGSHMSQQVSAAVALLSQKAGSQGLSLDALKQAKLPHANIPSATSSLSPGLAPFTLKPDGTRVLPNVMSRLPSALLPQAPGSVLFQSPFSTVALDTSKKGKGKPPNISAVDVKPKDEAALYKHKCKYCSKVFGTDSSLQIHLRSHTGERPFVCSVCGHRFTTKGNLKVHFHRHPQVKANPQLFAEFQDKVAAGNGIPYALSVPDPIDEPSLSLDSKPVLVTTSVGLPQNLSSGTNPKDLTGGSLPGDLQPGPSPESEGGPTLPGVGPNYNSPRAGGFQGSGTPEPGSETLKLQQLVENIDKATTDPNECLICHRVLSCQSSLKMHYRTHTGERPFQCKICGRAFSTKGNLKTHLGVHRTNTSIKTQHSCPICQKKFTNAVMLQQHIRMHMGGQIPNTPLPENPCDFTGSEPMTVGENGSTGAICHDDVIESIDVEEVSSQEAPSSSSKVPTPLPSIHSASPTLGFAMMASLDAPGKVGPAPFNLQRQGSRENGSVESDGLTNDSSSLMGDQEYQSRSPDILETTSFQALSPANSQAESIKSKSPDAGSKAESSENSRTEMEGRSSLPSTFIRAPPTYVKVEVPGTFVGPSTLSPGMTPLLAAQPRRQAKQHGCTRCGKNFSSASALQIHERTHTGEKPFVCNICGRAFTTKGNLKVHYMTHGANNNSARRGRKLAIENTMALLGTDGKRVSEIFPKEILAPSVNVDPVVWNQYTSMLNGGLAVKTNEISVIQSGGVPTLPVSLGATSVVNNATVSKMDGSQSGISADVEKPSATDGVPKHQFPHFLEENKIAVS
Technique: universal PBM
Form: double-stranded DNA, one strand shown
Sample: in vitro
Tested at: 600 nM
Notes: 8-mer, flanks averaged, mean of replicates
Reading: higher = stronger binding
Sequence	E-score
AAGGGACT	-0.0122
ATTGTCTA	0.201
AGTGTCCG	-0.219
ACCTGGGA	-0.0351
CTCAACAA	0.155
GTTAAAGA	0.149
AACGCTAA	-0.0578
ACCCCAGC	-0.164
ACACCTGA	-0.0321
CAAGGAGG	-0.0566
AGTTATCG	0.25
TAACTGGA	0.139
AAACGTAA	0.282
CGATGGCA	-0.219
GCACCTGA	-0.0072
CCTCATGA	0.0022

Block 2
Target: RNA binding protein fox-1 homolog 2, RRM domain, GST-SBP tag (RBFOX2, Homo sapiens, UniProt O43251-10, residues 100-194)
Technique: RNA Bind-n-Seq
Form: RNA
Sample: in vitro
Tested at: 365 nM
Notes: natural RNA segment, single round, ends assumed
Relative to: no-protein control
Reading: higher = stronger binding
Constant ends, left off below: GGGAGUUCUACAGUCCGACGAUC … UGGAAUUCUCGGGUGCCAA
Residues (chain): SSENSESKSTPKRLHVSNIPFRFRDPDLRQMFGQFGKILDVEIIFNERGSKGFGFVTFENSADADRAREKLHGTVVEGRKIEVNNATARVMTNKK
Sequence	RBNS enrichment (R)
ACAGAACUGCCCAAUCCAGGGGCUCUGGGAUAUGGCUGCCCGGGAUUACAGAAAGACACGGCACUGCCGUGCACACCCAUGCUGCUUAGAAGCCUAAGCCUCUGCCUUCA	0.2
GAAUGCAUGCCCAGUCAGAAAUCUGUUCUAUUCUGCUCCAGGAAAAUCGGAAACCUGUGAGUCAGAGUCAGAGAAACUUACCCAAGCAACGUAAUUCCUGUUUUCAUGGG	23
UUGGACUCUGCACUCCCUCUCCUCUUCAGGGGCCAGACUUGGCAGCAUGUGCACCAGGUUGGUGUUCACCAGCUCAUGUCUUCCCCACAUCUCUUCUUGCCAGUAAGCAG	0.654
ACUAGAUGUUUUUCUGAAGAUCAAUUAGACAUUUUGAAAAUGAUUUAAAGUGUUUUCCUUAAUGUUCUCUGAAAACAAGUUUCUUUUGUAGUUUUAACCAAAAAAGUGCC	0.348
GGGUUUGCCAGUAGAACACUGCGUUCCAGUCACCCCGGUCUUGCCAGAAGAAACCAGCACCUCUUUCCCGUGGCUCCUGUGUUCAGAAUGUGGUAUUGGCUCUGGCCCAG	2.01
UUGAACCACCAUAGACCUAGUAAGUGAGCCCAGUGUGUCCUCCCAUGUAAGAGCCAGGUGUUCAGUGGCAUGUGCUUAAAAGUCGCCCCCAACUAAGGUCUGUGUCGCCU	0.918
UCUAAGUUAACAGUCUCCUAAAGUGACCACCUACAUUUCUUAUAAUCCAGGUAGUUCCUGUCAUGUCCACACACACAUGGAUUGUAGUGAUCCAAUUGCCCCAGUCUCCC	0.386
UAAACUGAUUUUCAGAAUUCACUGAACUACUAAAUGUGGGAUUGGAUAAUAGACUUGGAGUGCCGCUGAGGCUGAGAUCUGUGGCCAUUUACAUAGCACAUCAUUCCUCC	0.349
AGAUGUCCUGAGGAGAAAAGCUGGACAUAUACUGGGCUUCACACUUAUCUUAUGGCUUGGCAGAAUCUUUGUAGUGUGUGGGAUCUCUGAAGGCCCUAUUUAAGUUUUUC	1.18
AAUCUCUGCAAUCUGUGUCAUGGACUGUACUAUUGUAAGGUCUAUAUUCUGUAUGUGGGUCCCAGACCCUGAUCAGGAAAUGAGCCUCAUGUGUGUCGUUAACAUUUAUA	0.49
CUGAGGUGGUUGUGACCUGGAUCUUGAAGACUAAAAGACACAGAGUCUGCUGAGCUGCUCCUGUGCAUGGUGGCUGUCUCUUCAUCUAGGGCAGAAAUCUAUAGAUUCUU	3.84
CCAGCCUCUCCACCAGCCCCUCCAGUCAACCCUCAUCGCCGUGCCCCCCCAGAGCUAGAGAGAUGGGGCCCCUGCGUGGCCCGAGGGGCAGAGCUGGGCGUCACUUCGCA	0.786

Block 3
Target: CCNF, cyclin fold, Cln2 fusion (human)
Technique: yeast growth competition, sequencing
Sample: yeast
Notes: strong parent motif
Relative to: not given
Reading: higher = stronger binding
Starting sequence: INSM1 docking peptide (human); PKAIRKLHFEDEV
Substitution	normalised enrichment score
PKAIRKLHFEDCV [E12C]	7.86
PFAIRKLHFEDEV [K2F]	7.29
PKAIRKVHFEDEV [L7V]	0.2
PKAIDKLHFEDEV [R5D]	-0.26
PKAIRTLHFEDEV [K6T]	5.76
PPAIRKLHFEDEV [K2P]	6.77
PKAIRKLHFTDEV [E10T]	7.61
PKAIRLLHFEDEV [K6L]	3.37
PKAITKLHFEDEV [R5T]	1.04
PKAIRKLHFEDMV [E12M]	8.42
PKAIRKLHAEDEV [F9A]	-0.288
PKAIRKLHFEVEV [D11V]	7.47
PKAIRKLHFEDDV [E12D]	7.71
PKAIRKLHFYDEV [E10Y]	7.23
PKAIPKLHFEDEV [R5P]	-0.435
PYAIRKLHFEDEV [K2Y]	7.28
PKAIRKLPFEDEV [H8P]	2.82
PTAIRKLHFEDEV [K2T]	7.46

Block 4
Target: Transcriptional repressor CTCF (CTCF, Homo sapiens, UniProt P49711, residues 1-727, full length assumed)
Technique: protein-binding microarray
Form: double-stranded DNA, one strand shown
Sample: in vitro
Tested at: not given
Notes: k-mer, scored over probes, only values ≥0.25
Reading: higher = stronger binding
Residues (chain): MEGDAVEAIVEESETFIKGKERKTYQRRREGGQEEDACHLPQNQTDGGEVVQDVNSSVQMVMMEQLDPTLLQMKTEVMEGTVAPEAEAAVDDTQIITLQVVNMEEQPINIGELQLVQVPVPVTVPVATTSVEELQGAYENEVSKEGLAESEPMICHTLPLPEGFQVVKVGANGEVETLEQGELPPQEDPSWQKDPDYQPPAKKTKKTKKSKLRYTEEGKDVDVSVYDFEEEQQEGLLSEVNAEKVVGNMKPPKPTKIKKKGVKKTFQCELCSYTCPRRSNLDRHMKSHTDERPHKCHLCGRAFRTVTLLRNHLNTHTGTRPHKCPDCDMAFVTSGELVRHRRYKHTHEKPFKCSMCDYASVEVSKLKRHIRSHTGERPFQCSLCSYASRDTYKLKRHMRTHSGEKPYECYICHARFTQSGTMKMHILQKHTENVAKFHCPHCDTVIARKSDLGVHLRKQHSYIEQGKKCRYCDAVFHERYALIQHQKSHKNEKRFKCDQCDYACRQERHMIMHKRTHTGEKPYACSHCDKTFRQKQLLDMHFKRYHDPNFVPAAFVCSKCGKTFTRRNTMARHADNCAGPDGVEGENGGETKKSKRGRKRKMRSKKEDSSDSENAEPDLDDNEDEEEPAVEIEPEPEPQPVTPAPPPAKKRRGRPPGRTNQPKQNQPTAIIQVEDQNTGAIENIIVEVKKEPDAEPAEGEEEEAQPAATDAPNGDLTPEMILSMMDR
Sequence	E-score
AATAGCGC	0.349
ACAAATAT	0.297
CATCATAC	0.269
GTTATTAA	0.274
ATACTACA	0.26
ATCGTAAT	0.258
AACTATAT	0.327
ATGCGCAT	0.441
TAAATATA	0.374
AAAAACGA	0.316
AAAAAAAA	0.302
CGCGACAA	0.261
AGAATTTA	0.287
AGCGCAAT	0.332
ACCACTAG	0.389
AGCGCGCA	0.308
ACTGGCGC	0.263
AATGCAAT	0.268
TAACAGTA	0.297

Block 5
Target: Histone acetyltransferase KAT6A, both winged helices, GST fusion (KAT6A, Homo sapiens, UniProt Q92794, residues 1-181)
Technique: protein binding microarray
Form: double-stranded DNA, one strand shown
Sample: in vitro
Tested at: not given
Notes: 8-mer, flanks averaged, mean of 2 arrays, mostly near background
Relative to: not given
Reading: higher = stronger binding
Construct (chain): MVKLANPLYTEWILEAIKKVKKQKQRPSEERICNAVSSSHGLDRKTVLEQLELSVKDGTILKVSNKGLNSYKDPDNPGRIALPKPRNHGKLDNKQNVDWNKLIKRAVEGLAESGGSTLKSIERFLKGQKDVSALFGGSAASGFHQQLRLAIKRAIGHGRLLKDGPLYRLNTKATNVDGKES
Sequence	E-score
AGCAGTTC	0.00492
ATTCTCTC	-0.0787
GCACAAGA	-0.0404
ATAGTAAT	-0.0575
GACGCCTC	-0.031
GGAGGGCA	-0.114
CTCCAAGC	-0.0776
ACGTTCAT	-0.0528
CACCTTTC	-0.146
AAGCGCTG	0.328
CGATCTGC	0.059
ATACTCTA	-0.00855
AGTCATCG	-0.0346
ATTATCCA	0.061
CGTGTACA	0.12
GCAGAAGC	0.034

Block 6
Target: Centromere-binding protein 1, full length, N-terminal tag (CBF1, Saccharomyces cerevisiae, UniProt P17106, residues 1-351)
Sequence of UniProt P17106 (whole entry, looked up): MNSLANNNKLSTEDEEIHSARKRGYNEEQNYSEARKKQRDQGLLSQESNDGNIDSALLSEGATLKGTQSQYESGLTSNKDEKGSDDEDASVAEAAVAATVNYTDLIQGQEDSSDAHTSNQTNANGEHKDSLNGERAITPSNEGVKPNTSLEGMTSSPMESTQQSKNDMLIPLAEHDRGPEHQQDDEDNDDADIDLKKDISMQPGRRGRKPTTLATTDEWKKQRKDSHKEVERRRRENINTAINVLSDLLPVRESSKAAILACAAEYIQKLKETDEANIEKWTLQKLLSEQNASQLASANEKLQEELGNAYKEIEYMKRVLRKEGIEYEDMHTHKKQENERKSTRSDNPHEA
Technique: protein-binding microarray
Form: double-stranded DNA, one strand shown
Sample: in vitro
Tested at: 0.8 µM
Notes: whole 60-bp probe, no competitor
Reading: higher = stronger binding
Constant ends, left off below: … GTCTTGATTCGCTTGACGCTGCTG
Sequence	fluorescence intensity [a.u.]
CTAAAGCATCAACACCATGTGCATACCATACCGTTC	577
CTAGCGCTCCTGCCGCACGCTTTGTTCCTTTTCTTC	516
GAAATGTTTATATGTAATCAGCTGTATTTATATTAG	625
GAAAGGTGTAAAGGACATCAGAGAGGAAAATATTAG	522
CTATGTTAATAGATGCACGTTTCATTGACATCTTTC	675
GAAATAATGTGTGAAAACGTGATGCTTTCTCGATAG	1350
CTATCTCCATACGGTGACATGGCGTTATTTACATTC	537
GAAAACCATCCACTTCACGAGACTGATCTCCTCTAG	578
GAAACTATTCCTCCCCACTCACGTCTATAGTCCTAG	490
GAAATTTTGTTCTGTCACCTTTGTGGATGTCTTTAG	543
GAAAAAACAGAAAACCACCAGAGAGAAGCACCGTAG	480
CTAAATGTCAATAATCACACGTCGTTATAAGCATTC	574
GAATGCTTATTACGTGACATGACCCTATTGTATTAG	701
CTACAATAATAAAATCATCACCTCCGTTGCCTTTTC	504
CTATCTTCATTTAATAACGTGTTAAGAATGACATTC	793
GAAGGCTTTGAACGTGATTTTCCCAAACCCTGTTAG	785
CTATCCTTCGAGCACAACGTGGCATTATATATATTC	670
GAATGCATACGTCGTGGTGTTTATCTTTGATTGTAG	552
GAAAATAATAGTATACAGGTGATTCTTATTTATTAG	833
CTATAATGTATGGGTGGTGTGTACACCAAGGTATTC	503
GAAGGGTGCGTAAGTATGGTGATGCATTTTGTTTAG	545
CTAGCTTTCGATTACCATGTGCAATCTGTCTATTTC	641

Excerpt of the above (block 3):
Substitution	normalised enrichment score
PKAIRKLHFEDCV [E12C]	7.86
PFAIRKLHFEDEV [K2F]	7.29
PKAIRKVHFEDEV [L7V]	0.2
PKAIDKLHFEDEV [R5D]	-0.26
PKAIRTLHFEDEV [K6T]	5.76
PPAIRKLHFEDEV [K2P]	6.77
PKAIRKLHFTDEV [E10T]	7.61
PKAIRLLHFEDEV [K6L]	3.37
PKAITKLHFEDEV [R5T]	1.04
PKAIRKLHFEDMV [E12M]	8.42
PKAIRKLHAEDEV [F9A]	-0.288
PKAIRKLHFEVEV [D11V]	7.47
PKAIRKLHFEDDV [E12D]	7.71
